# Measured values of several laboratories.
# Lines come from different studies, so protocols differ. Several values in a cell are separate wells, animals, samples, runs or records. Numbers after ± are the reported error.
Compound,assay,test system,conditions,scale,measurement,result
COc1ncccc1-c1cnn2ccc(N3CCN(C(=O)OC(C)C)CC3)nc12,,"rat, CCI mechanical hyperalgesia model, plasma","oral, 30 mg/kg, 210 min",,drug concentration,3.7 µM
CCCCCOc1ccc(-c2ccc(-c3ccc(C(=O)N[C@H]4C[C@@H](O)[C@@H](OCC[N+](C)(C)C)NC(=O)[C@@H]5[C@@H](O)[C@@H](C)CN5C(=O)[C@H]([C@@H](C)O)NC(=O)[C@H]([C@H](O)[C@@H](O)c5ccc(O)cc5)NC(=O)[C@@H]5C[C@@H](O)CN5C(=O)[C@H]([C@@H](C)O)NC4=O)cc3)cc2)cc1,,"adult patients in ICU, plasma","intravenous, 400 mg loading dose, after first dose, arithmetic mean",,Cmin,2.19 µg/mL
Cn1c(-c2ccc(C(N)=O)cc2F)nnc1C(C)(C)Oc1c(F)cc(Cl)cc1F,,human,"oral, 3 mg, single ascending dose",,nervous system disorder TEAE,0%
Cn1cncc1-c1c(F)cncc1NC(=O)c1c(N)nn2cc(F)cnc12,,human patients,"oral, 150 mg twice daily, 4 days per 3 days",,grade ≥3 creatinine increased,0%
COc1cc2c(Oc3ccc4[nH]c(C)cc4c3F)ccnc2cc1OCC1(N)CC1,,paediatric recurrent refractory sarcoma,"concentration not given, whole group",,grade 3 Proteinuria,0%
CCc1nc(C(N)=O)c(Nc2ccc(N3CCC(N4CCN(C)CC4)CC3)c(OC)c2)nc1NC1CCOCC1,,"patients, plasma","oral, 300 mg once daily, cycle 1 day 15, median",,Cmin,1.08 µg/mL
CC1(C)[C@H](C(=O)OCc2cccc(Oc3ccccc3)c2)[C@@H]1C=C(Cl)Cl,item: CYP3A5,"human, age 1 year, recombinant human CYP3A5",0.1 µM,,enzyme contribution to clearance,0.13%
CCc1ccc(CC/C=C/c2ccc3c(c2)C(=O)CC3)cc1,,"Sprague-Dawley rat, male, blood","oral, 30 mg/kg/day, 14 days",,hematocrit,47.8%
CC(C)C[C@H](NC(=O)[C@H](CCCCN)NC(=O)OCC1c2ccccc2-c2ccccc21)C(=O)N[C@H](C(=O)N[C@@H](Cc1ccccc1)C(=O)N[C@@H](Cc1ccccc1)C(=O)N[C@@H](CCCCN)C(=O)NCC(=O)N[C@@H](Cc1ccccc1)C(=O)N[C@@H](C)C(=O)N[C@@H](Cc1c[nH]c2ccccc12)C(=O)N[C@@H](CC(N)=O)C(=O)N[C@H](C(=O)N[C@H]1CSSC[C@@H](C(=O)N[C@@H](Cc2c[nH]cn2)C(=O)N[C@@H](CCCNC(=N)N)C(=O)N[C@@H](CCCNC(=N)N)C(=O)N[C@@H](C)C(=O)N[C@@H](CC(N)=O)C(N)=O)NC(=O)[C@H](C(C)C)NC(=O)[C@H](CCCNC(=N)N)NC(=O)[C@H](C(C)C)NC(=O)CNC(=O)[C@H](CC(N)=O)NC(=O)[C@H](CCCNC(=N)N)NC(=O)[C@H](Cc2ccc(O)cc2)NC(=O)[C@H](C(C)C)NC1=O)C(C)C)C(C)C,,ICR mouse,"ip, 10 mg/kg",direction not given,spasm score,0
CCCCCCCC(=O)N[C@@H](CCCCN)C(=O)N[C@@H](CCCCN)C(=O)N[C@@H](C)C(=O)N[C@@H](CC(C)C)C(=O)N[C@@H](CCCCN)C(=O)N[C@@H](CC(C)C)C(=O)N[C@@H](C)C(=O)N[C@@H](CCCCN)C(=O)N[C@@H](CCCCN)C(=O)N1CCC[C@H]1C(=O)N[C@@H](CC(C)C)C(=O)N[C@@H](CCCCN)C(=O)N[C@@H](CC(C)C)C(=O)N[C@@H](CC(C)C)C(=O)N[C@@H](CCCCN)C(N)=O,,"mouse ICR CD1 female, whole blood","intravenous bolus, 1 mg/kg",,volume of distribution,1.31 ± 0.324 L/kg
CC(C)[C@@H]1NC(=O)CNC(=O)[C@H](CC(N)=O)NC(=O)[C@H](CCCNC(=N)N)NC(=O)[C@H](Cc2ccc(O)cc2)NC(=O)[C@H](C(C)C)NC(=O)[C@@H](NC(=O)[C@@H](NC(=O)[C@H](CC(N)=O)NC(=O)[C@H](Cc2c[nH]c3ccccc23)NC(=O)[C@H](C)NC(=O)[C@H](Cc2ccccc2)NC(=O)CN)C(C)C)CSSC[C@@H](C(=O)N[C@@H](Cc2cnc[nH]2)C(=O)N[C@@H](CCCNC(=N)N)C(=O)N[C@@H](CCCNC(=N)N)C(=O)N[C@@H](C)C(=O)N[C@@H](CC(N)=O)C(N)=O)NC(=O)[C@H](C(C)C)NC(=O)[C@H](CCCNC(=N)N)NC1=O,,"ICR mouse, blood","intramammary, 5 mg/kg, day 5, 3 d dosing",,ALT,48.8 ± 3.37 IU/L
CCC[C@@](N)(CO)CCc1ccc(OCCCCCC(C)C)cc1,,"male hound dog, plasma","oral, 2.5 mg/kg, solution, median",,Tmax,3.13 h
CCCCCCCCCCCCCCCC(=O)N[C@@H](CCC(=O)NCCCC[C@H](NC(=O)[C@H](CC(=O)O)NC(=O)[C@H](CO)NC(=O)[C@@H](NC(=O)[C@H](Cc1ccccc1)NC(=O)[C@@H](NC(=O)CNC(=O)[C@H](CCC(N)=O)NC(=O)[C@H](CO)NC(=O)[C@@H](N)Cc1c[nH]cn1)[C@@H](C)O)[C@@H](C)O)C(=O)N[C@@H](CO)C(=O)N[C@@H](CCC(=O)O)C(=O)N[C@@H](Cc1ccc(O)cc1)C(=O)N[C@@H](CC(C)C)C(=O)N[C@@H](CC(=O)O)C(=O)N[C@@H](CO)C(=O)N[C@@H](CCC(=O)O)C(=O)N[C@@H](CCCNC(=N)N)C(=O)N[C@@H](C)C(=O)N[C@@H](CCCNC(=N)N)C(=O)N[C@@H](CC(=O)O)C(=O)N[C@@H](Cc1ccccc1)C(=O)N[C@H](C(=O)N[C@@H](C)C(=O)N[C@@H](Cc1c[nH]c2ccccc12)C(=O)N[C@@H](CC(C)C)C(=O)N[C@@H](CCC(=O)O)C(=O)N[C@@H](C)C(=O)NCC(=O)NCC(=O)O)C(C)C)C(=O)O,item: Dyspepsia,humans CrCl below 20 mL/min,"subcutaneous, 100 µg single dose",,treatment-related adverse events,0%
CN1CC[C@@H](c2c(O)cc(O)c3c(=O)cc(-c4ccc(C(F)(F)F)cc4Cl)oc23)[C@@H]1CO,item: Neutropenia,AML,"oral, 200 mg, intermittent dosing",,patients with adverse event,20%
N#C[C@@]1(n2ccc(N)nc2=O)O[C@H](CO)[C@@H](O)[C@H]1O,,"CD-1 mouse, plasma","intravenous, dose not given, 7 h",,concentration,0.37 µM and 0.59 µM and 0.61 µM
C[C@]1(CO)Cc2ncn(-c3ccc(C#N)c(Cl)c3)c2C(=O)O1,,"human, plasma","10 mg once daily, fasted",,tmax at steady state,0.5 h
CC(C)C(=O)OC[C@H]1O[C@@H](n2ccc(NO)nc2=O)[C@H](O)[C@@H]1O,,rat amniotic fluid dialysate,"250 ng/mL, 6 h, 10 °C, high QC concentration, with: NHC 1000 ng/mL",,autosampler stability,95.5 ± 6.2%
O=C(Nc1ccccc1)C1CCN(C(=O)Oc2cccnc2)CC1,adverse event reporting,healthy women,"oral, 60 mg, 7 days",,subjects with Tachycardia adverse event,7.1%
CN1CCN(c2cccc3c2CCN(C(=O)/C=C/c2c(-n4cnnn4)ccc(Cl)c2F)[C@@H]3C(=O)Nc2ccc(C(=O)O)cc2)C(=O)C1,,healthy human subjects,"intravenous infusion, 25 mg/h, 2 h",,deaths,0%
CC[C@H](C)[C@@H]1NC(=O)[C@@H]2CSSC[C@H](NC(=O)[C@H](CCCNC(=N)N)NC(=O)[C@@H]3CSSC[C@H](NC1=O)C(=O)N[C@@H]([C@@H](C)O)C(=O)N[C@@H](CCCNC(=N)N)C(=O)NCC(=O)N[C@@H](Cc1ccccc1)C(=O)N3)C(=O)N[C@@H](CC(C)C)C(=O)N[C@H]1CSSC[C@H](NC(=O)[C@H](C(C)C)NC(=O)CNC(=O)[C@H](CCCNC(=N)N)NC(=O)[C@H](CCCNC(=N)N)NC1=O)C(=O)N[C@@H](CCCNC(=N)N)C(=O)N2,,"Sprague-Dawley rats, female, lung","20 mg/kg, perivascular and peribronchiolar",direction not given,eosinophilic infiltration score,1 to 2
Fc1ccc([C@@H]2CCNC[C@H]2COc2ccc3c(c2)OCO3)cc1,item: Constipation,healthy volunteers,"oral, dose not given, given -1 h relative to LSD, with: LSD",direction not given,List of Complaints score,0 score
Nc1ncnc2c1ncn2[C@@H]1O[C@@H]2COP(=O)([S-])O[C@@H]3[C@H](O)[C@@H](COP([O-])(=S)O[C@H]2[C@H]1O)O[C@H]3n1cnc2c(N)ncnc21.[Na+].[Na+] (stereo partly shown),,"non-tumor-bearing mice, blood","intravenous, 1 mg/kg, toxicity study",,haemoglobin,145 ± 9.39 g/L
O.O.O.O.O.O.[Cl-].[Cl-].[Co+2],,"rat female, faeces","oral, 10 mg/kg single, day 2",relative to: vehicle control subtracted,cobalt in faeces,2.77 µg/g
O=c1ccc2cc3ccoc3cc2o1,post-procedure stability,rat plasma,"1000 ng/mL, 3 h, room temperature",,accuracy,107%
CC(C)(O)c1cc(Nc2cc(Oc3cn(C4CC4)nc3C3CCOCC3)ccn2)ccn1,,grade 4 glioma expansion cohort,"oral, 50 mg twice daily",,"AST increased, any grade",5%
Cc1ccc2cc(N3CCC4(O)C(=O)c5cc(C)c(C)cc5N=C34)ccc2n1 (stereo not shown),respiratory safety pharmacology,rat,"IV, dose not given",,minute volume,no effect
O=C(C1CCSCC1)N1CC(=O)N2CCc3ccccc3[C@@H]2C1,,"NMRI mouse, female, S. mansoni-infected, plasma","oral, 200 mg/kg",,Cmax of (R)-enantiomer,3.3 µM
C[C@@H]1NC(=O)[C@H](CCCCNC(=O)CO/N=C/C(=O)NCCCC[C@@H]2NC(=O)[C@@H](Cc3ccccc3)NC(=O)[C@H](CC(=O)O)NC(=O)CNC(=O)[C@H](CCCNC(=N)N)NC2=O)NC(=O)CNC(=O)[C@@H]2CCCN2C(=O)[C@H](CCCCNC(=O)CO/N=C/C(=O)NCCCC[C@@H]2NC(=O)[C@@H](Cc3ccccc3)NC(=O)[C@H](CC(=O)O)NC(=O)CNC(=O)[C@H](CCCNC(=N)N)NC2=O)NC(=O)[C@H](CCCCNC(=O)CCNC(=O)CCNC(=O)CCNC(=O)[C@H](CCCCN)NC(=O)[C@H](Cc2ccccc2)NC(=O)CNC(=O)CN2CCCNCCNCCCNCC2)NC(=O)[C@H](CCCCNC(=O)CO/N=C/C(=O)NCCCC[C@@H]2NC(=O)[C@@H](Cc3ccccc3)NC(=O)[C@H](CC(=O)O)NC(=O)CNC(=O)[C@H](CCCNC(=N)N)NC2=O)NC(=O)CNC(=O)[C@@H]2CCCN2C(=O)[C@H](CCCCNC(=O)CO/N=C/C(=O)NCCCC[C@@H]2NC(=O)[C@@H](Cc3ccccc3)NC(=O)[C@H](CC(=O)O)NC(=O)CNC(=O)[C@H](CCCNC(=N)N)NC2=O)NC1=O [copper-64 labelled],biodistribution after PET,"mouse, U-87 MG tumour xenograft, kidney","intravenous, 24 h",,tissue uptake,10.9 ± 5.03 %ID/g
Cc1cccc(Cn2nc(C3CC3)c3c(NC(=O)c4cnc5cc(OCCN6CCN(C)CC6)ccn45)cccc32)n1,item: Pyrexia,human advanced solid tumours,"oral, 400 mg, all-causality",,adverse events incidence,42.9%
C[C@@H](NC(=O)N1C(=O)[C@H](Cc2ccnc(N)c2)[C@H]1C(=O)O)C1CCCCC1,,healthy adult Chinese volunteers,"continuous intravenous infusion, 0.6 mg/kg/h, 5-day infusion, CTCAE 5.0 grading",,incidence of AEs leading to discontinuation,12.5%
CO[C@H]1C[C@@H]2CC[C@@H](C)[C@@](O)(O2)C(=O)C(=O)N2CCCC[C@H]2C(=O)O[C@H]([C@H](C)C[C@@H]2CC[C@@H](OC(=O)NCCOCCOCCOCCOCCOCCOCCOCCOCCC(=O)N3CCc4cc(Cn5nc(-c6ccc7oc(N)nc7c6)c6c(N)ncnc65)ccc4C3)[C@H](OC)C2)C[C@@H](O)[C@H](C)/C=C(\C)[C@@H](O)[C@@H](OC)C(=O)[C@H](C)C[C@H](C)/C=C/C=C/C=C/1C,,patients with advanced solid tumours,"intravenous, 8 mg weekly, any grade",,abdominal pain incidence,25%
COc1ccc([C@@H](O)c2cc(-c3ncnc4cc(N5CCOCC5)ccc34)c(F)cc2Cl)nn1,,"patients, advanced solid tumours","oral, 250 mg twice daily, treatment-emergent, with: avelumab",,hypokalaemia incidence,3%
O=C1Nc2cc3[nH]nc(-c4ccncc4)c3cc2CN1Cc1ccccc1,CTCAE v4.03,advanced solid tumour patients,"intravenous, 7.2 mg/kg",,patients with macular oedema,33%
C[C@@H]1OC(=O)NN=C1c1ccc(-c2ccc(F)cc2)c(C(F)(F)F)c1,"phase I trial, item: Cough worst grade 1",human patients,"dose not given, all dose groups",,patients with adverse event,20%
COc1ccc([C@@H]2CC(=O)c3c(O)cc(O)cc3O2)cc1O,,"Sprague-Dawley rat, male, obese, urine","oral, 100 mg/kg of neohesperidin, 48 h, after β-glucuronidase/sulfatase, total",,amount excreted in urine,142 ± 69.9 ng
CC(C)(C)c1cc(-n2nc3ccccc3n2)c(O)c(C(C)(C)C)c1,,human aged 21-60 years,"concentration not given, sunscreen, 95th percentile",,daily dermal exposure dose,5.06 ng/kg/day
O=[N+]([O-])c1ccc2c(c1)S(=O)(=O)C=C2,,"male C57BL/6 mice, blood","intraperitoneal, 10 mg/kg, day 8, group average",,platelet distribution width,14.8%

# For quick reference, copied from above:
Compound,assay,test system,conditions,scale,measurement,result
Cc1cccc(Cn2nc(C3CC3)c3c(NC(=O)c4cnc5cc(OCCN6CCN(C)CC6)ccn45)cccc32)n1,item: Pyrexia,human advanced solid tumours,"oral, 400 mg, all-causality",,adverse events incidence,42.9%
C[C@@H](NC(=O)N1C(=O)[C@H](Cc2ccnc(N)c2)[C@H]1C(=O)O)C1CCCCC1,,healthy adult Chinese volunteers,"continuous intravenous infusion, 0.6 mg/kg/h, 5-day infusion, CTCAE 5.0 grading",,incidence of AEs leading to discontinuation,12.5%
CO[C@H]1C[C@@H]2CC[C@@H](C)[C@@](O)(O2)C(=O)C(=O)N2CCCC[C@H]2C(=O)O[C@H]([C@H](C)C[C@@H]2CC[C@@H](OC(=O)NCCOCCOCCOCCOCCOCCOCCOCCOCCC(=O)N3CCc4cc(Cn5nc(-c6ccc7oc(N)nc7c6)c6c(N)ncnc65)ccc4C3)[C@H](OC)C2)C[C@@H](O)[C@H](C)/C=C(\C)[C@@H](O)[C@@H](OC)C(=O)[C@H](C)C[C@H](C)/C=C/C=C/C=C/1C,,patients with advanced solid tumours,"intravenous, 8 mg weekly, any grade",,abdominal pain incidence,25%
COc1ccc([C@@H](O)c2cc(-c3ncnc4cc(N5CCOCC5)ccc34)c(F)cc2Cl)nn1,,"patients, advanced solid tumours","oral, 250 mg twice daily, treatment-emergent, with: avelumab",,hypokalaemia incidence,3%
